{"data": "Literature values, collected from citations in different studies", "note": "Numbered parts are unrelated; values within a part may stem from several laboratories."}
{"data": "Series 1", "organism": "Plasmodium falciparum", "concentration": "concentration not given"}
{"Structure (SMILES)": "OCCN(CCO)c1nc(N2CCCCC2)c2nc(N(CCO)CCO)nc(N3CCCCC3)c2n1", "activity": "active"}
{"Structure (SMILES)": "CNCCCN1c2ccccc2CCc2ccccc21", "activity": "active"}
{"Structure (SMILES)": "Oc1c(Cl)cc(Cl)c2cccnc12", "activity": "active"}
{"Structure (SMILES)": "C[C@H]1[C@H](OC(=O)CCC(=O)O)O[C@@H]2O[C@@]3(C)CC[C@H]4[C@H](C)CC[C@@H]1[C@@]24OO3", "activity": "active"}
{"Structure (SMILES)": "CC12CC3CC(C)(C1)CC(N)(C3)C2", "activity": "active"}
{"Structure (SMILES)": "CCN(CC)C(=S)SSC(=S)N(CC)CC", "activity": "active"}
{"Structure (SMILES)": "CN(C)CCCC1(c2ccc(F)cc2)OCc2cc(C#N)ccc21 (centres unmarked)", "activity": "active"}
{"Structure (SMILES)": "CN(C)CCOC(C)(c1ccccc1)c1ccccn1 (centres unmarked)", "activity": "active"}
{"Structure (SMILES)": "CC(CN1c2ccccc2Sc2ccccc21)N(C)C.Cl (centres unmarked)", "activity": "active"}
{"Structure (SMILES)": "CN(C)CCC(c1ccc(Cl)cc1)c1ccccn1 (centres unmarked)", "activity": "active"}
{"Structure (SMILES)": "CN1CCN(CCCN2c3ccccc3Sc3ccc(Cl)cc32)CC1", "activity": "active"}
{"Structure (SMILES)": "Oc1c(Cl)cc(Cl)c(Cl)c1Cc1c(O)c(Cl)cc(Cl)c1Cl", "activity": "active"}
{"Structure (SMILES)": "Clc1ccc2c(c1)C(N1CCNCC1)=Nc1ccccc1O2", "activity": "active"}
{"Structure (SMILES)": "CC(C)NCC(O)c1ccc(O)c(O)c1.Cl (centres unmarked)", "activity": "active"}
{"Structure (SMILES)": "Nc1nc(N)c2nc(-c3ccccc3)c(N)nc2n1", "activity": "active"}
{"Structure (SMILES)": "CN(C)CC[C@@H](c1ccc(Br)cc1)c1ccccn1", "activity": "active"}
{"data": "Series 2", "target": "dopamine transporter"}
{"SMILES": "N[C@@H](Cc1ccc(O)c(O)c1)C(=O)O", "IC50 [µM]": "> 10"}
{"SMILES": "Nc1ccn([C@@H]2CS[C@H](CO)O2)c(=O)n1", "IC50 [µM]": "> 10"}
{"SMILES": "C[C@H]1C[C@@H]2[C@H]([C@@H](O)C[C@@]3(C)[C@H]2CC[C@]3(O)C(=O)CO)[C@@]2(C)C=CC(=O)C=C12", "IC50 [µM]": "> 10"}
{"SMILES": "COc1cc(N)c(Cl)cc1C(=O)NC1CCN(CCCOc2ccc(F)cc2)CC1OC (centres unmarked)", "IC50 [µM]": "> 10"}
{"data": "Further values, each from its own experiment"}
{"Structure (SMILES)": "Cc1cc(C[C@@H](NC(=O)N2CCC(c3cc4ccccc4[nH]c3=O)CC2)C(=O)N2CCN(C3CCN(C)CC3)CC2)cc2cn[nH]c12", "conditions": "intranasal, 10 mg", "quantity": "effective half-life", "result": "6.55 h"}
{"Structure (SMILES)": "CCCOc1ccc(S(=O)(=O)N2CCN(CCO)CC2)cc1-c1nc2c(CCC)cn(CC)c2c(=O)[nH]1", "test system": "healthy male volunteers", "conditions": "dose not given, without alcohol", "quantity": "diastolic blood pressure change", "result": "-6.4 mmHg"}
{"Structure (SMILES)": "OC(Cn1cncn1)(Cn1cncn1)c1ccc(F)cc1F", "test system": "human", "quantity": "Vd", "result": "0.73 L/kg"}
{"Structure (SMILES)": "Cc1cc(C)c(CNC(=O)c2cc(Cl)c3c(c2C)O[C@@](C)([C@H]2CC[C@H](N(C)C)CC2)O3)c(=O)[nH]1", "test system": "human", "conditions": "dose not given, added: fluconazole, moderate CYP3A inhibitor", "how to read": "relative to: without fluconazole", "quantity": "total AUCinf increase", "result": "~1.6 fold"}
{"Structure (SMILES)": "O=S(=O)(NC1CCC(c2cc(F)ccc2F)(S(=O)(=O)c2ccc(Cl)cc2)CC1)C(F)(F)F (centres unmarked)", "tested on": "SLC18A2", "quantity": "IC50", "result": "0.213 µM"}
{"Structure (SMILES)": "O=C1CCC(N2C(=O)c3ccccc3C2=O)C(=O)N1 (centres unmarked)", "tested on": "Hs Sultan", "assay": "cell proliferation", "conditions": "100 µM", "quantity": "inhibition", "result": "20%"}
{"Structure (SMILES)": "O=C(c1cc(Cc2n[nH]c(=O)c3ccccc23)ccc1F)N1CCN(C(=O)C2CC2)CC1", "test system": "male rat", "conditions": "dose not given, after 4 weeks daily dosing, at NOAEL", "quantity": "AUC(0-24 h)", "result": "1060 ng·h/mL"}
{"Structure (SMILES)": "CO[C@H]1CC[C@H](CNc2ccc(S(=O)(=O)NC(=O)c3ccc(N4CCN(CC5=C(c6ccc(Cl)cc6)CC(C)(C)CC5)CC4)cc3Oc3cnc4[nH]ccc4c3)cc2[N+](=O)[O-])CC1", "tested on": "BCL2", "assay": "biochemical", "quantity": "IC50", "result": "0.0014 µM"}
{"Structure (SMILES)": "Nc1cccc2c1CN(C1CCC(=O)NC1=O)C2=O (centres unmarked)", "assay": "TNF release", "test system": "human whole blood", "conditions": "added: LPS", "quantity": "IC50", "result": "0.1 µM"}
{"Structure (SMILES)": "CCOc1ccc(S(=O)(=O)Nc2ccc(Cl)cc2C#Cc2cnc(C(=O)O)cc2OC)c2ncccc12", "tested on": "PTGER2", "quantity": "IC50", "result": "> 30 µM"}
{"Structure (SMILES)": "C[C@@H](O)[C@H]1C(=O)N2C(C(=O)O)=C(S[C@@H]3CN[C@H](C(=O)N(C)C)C3)[C@H](C)[C@H]12", "test system": "human patients", "quantity": "fraction excreted in urine", "result": "48%"}
{"Structure (SMILES)": "Cn1ncnc1[C@H]1c2n[nH]c(=O)c3cc(F)cc(c23)N[C@@H]1c1ccc(F)cc1", "test system": "rat", "conditions": "0.05 mg/kg once daily, day 28", "quantity": "AUC", "result": "148 ng·h/mL"}
{"note": "A few entries again (series 1):"}
{"Structure (SMILES)": "Clc1ccc2c(c1)C(N1CCNCC1)=Nc1ccccc1O2", "activity": "active"}
{"Structure (SMILES)": "CN(C)CC[C@@H](c1ccc(Br)cc1)c1ccccn1", "activity": "active"}
{"Structure (SMILES)": "CN(C)CCOC(C)(c1ccccc1)c1ccccn1 (centres unmarked)", "activity": "active"}
{"Structure (SMILES)": "CCN(CC)C(=S)SSC(=S)N(CC)CC", "activity": "active"}
{"Structure (SMILES)": "CN(C)CCC(c1ccc(Cl)cc1)c1ccccn1 (centres unmarked)", "activity": "active"}
